{"data": "Published values gathered from unrelated publications", "note": "Parts stem from different laboratories: compare values within a part only."}
{"data": "Set 1", "target": "Ras GTPase-activating protein-binding protein 1, full length (G3BP1, Homo sapiens, UniProt Q13283)", "technique": "RNA Bind-n-Seq", "form": "RNA", "medium": "in vitro", "tested at": "200 nM", "notes": "whole 134-nt RNA, ends assumed", "together with": "150 mM LiCl", "baseline": "input library", "reading": "higher = stronger binding", "each molecule": "7-deaza-guanosine replaces G", "chain of UniProt Q13283 (whole entry, looked up)": "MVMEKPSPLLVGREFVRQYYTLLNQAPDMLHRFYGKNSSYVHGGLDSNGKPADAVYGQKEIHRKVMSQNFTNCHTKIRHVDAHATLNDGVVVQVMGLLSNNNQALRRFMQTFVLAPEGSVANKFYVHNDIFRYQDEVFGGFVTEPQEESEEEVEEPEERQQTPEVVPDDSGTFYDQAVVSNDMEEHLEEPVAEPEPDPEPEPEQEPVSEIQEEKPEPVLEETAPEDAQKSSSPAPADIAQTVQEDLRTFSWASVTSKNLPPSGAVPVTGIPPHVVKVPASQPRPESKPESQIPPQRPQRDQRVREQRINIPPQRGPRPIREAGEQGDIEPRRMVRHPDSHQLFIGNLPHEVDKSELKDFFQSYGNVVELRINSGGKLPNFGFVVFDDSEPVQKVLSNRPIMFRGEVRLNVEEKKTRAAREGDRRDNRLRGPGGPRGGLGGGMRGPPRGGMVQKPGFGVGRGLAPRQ"}
{"Sequence": "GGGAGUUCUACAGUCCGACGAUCCACAGACAACACGCACCCACACAGACACAGAGGGAAGGGGUUGGGCUGGGGACAGGGUGCACAGCAGGGCGGGGUAGGACCCCAGCCCCUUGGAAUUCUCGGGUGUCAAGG", "log2 enrichment": -0.61}
{"Sequence": "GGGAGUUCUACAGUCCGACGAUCCACAGACAACACGCACCCACACAGACACAGAGGGAAGGGGUUGGGAUGAGGACAGGGUGCACAGCAGGGCGGGGUAGGACCCCAGCCCCUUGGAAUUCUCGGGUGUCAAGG", "log2 enrichment": 0.261}
{"Sequence": "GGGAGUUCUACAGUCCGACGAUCUAACUUUAGAGGAGGAUCUGAUGGAUAUGCCAGUGGACGUGGAUUUGGGGAUGGCUAUAAUGGGUAUGGAGGAGGACCUGGAGGUGGCAAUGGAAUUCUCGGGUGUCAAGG", "log2 enrichment": -0.179}
{"Sequence": "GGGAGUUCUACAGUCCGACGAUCCUCAAGUCCUGUGCUACACAUCGUAUGUACCGAAUCGGUUUUUUUGGUGGAGGAAAGUAUUAUGUUACGCCGUUCGGAUCUGCACUUCCAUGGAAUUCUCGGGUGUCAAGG", "log2 enrichment": 0.296}
{"Sequence": "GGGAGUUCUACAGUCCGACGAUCGCAGGAAGUAAAAACAAAUGGAAAUGCUUCGGAUAGUGGCAGGGGUGGGGGUUACUAAGGAAAGGGUGGGAUGGGAGUGGGUAAAGAGUUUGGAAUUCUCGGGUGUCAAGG", "log2 enrichment": 0.278}
{"Sequence": "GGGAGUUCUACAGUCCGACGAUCUGGAAUAAGCCUGGUGCUUUCUGGCUAUGUUUGUCAUAGGCUGACCUGGAUAUCACCGAAAUAAACAAACUAACAGCAGAAGCUAUUCAGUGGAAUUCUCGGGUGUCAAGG", "log2 enrichment": -1.68}
{"Sequence": "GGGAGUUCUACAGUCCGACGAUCGAUGAUUACUAUGGUUAUGAUUAUCACGACUAUCGUGGAGGCUAUGAAGAUCCCUACUACGGCUAUGAUGAUGGCUAUGCAGUAAGAGGAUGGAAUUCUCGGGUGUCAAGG", "log2 enrichment": -1.48}
{"Sequence": "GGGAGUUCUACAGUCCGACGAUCAGUCCUGUGCUACACAUCGUAUGUACCGAAUCAAACCCCCAAACCCAAAUUUUUAAAAAAGUAUUAUGUUACGCCGUUCGGAUCUGCACUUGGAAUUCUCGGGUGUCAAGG", "log2 enrichment": 1.22}
{"data": "Set 2", "target": "Histone acetyltransferase KAT6A, both winged helices, GST fusion (KAT6A, Homo sapiens, UniProt Q92794, residues 1-181)", "technique": "protein binding microarray", "form": "double-stranded DNA, one strand shown", "medium": "in vitro", "tested at": "not given", "notes": "8-mer, flanks averaged, mean of 2 arrays, mostly near background", "baseline": "not given", "reading": "higher = stronger binding", "Residues (chain)": "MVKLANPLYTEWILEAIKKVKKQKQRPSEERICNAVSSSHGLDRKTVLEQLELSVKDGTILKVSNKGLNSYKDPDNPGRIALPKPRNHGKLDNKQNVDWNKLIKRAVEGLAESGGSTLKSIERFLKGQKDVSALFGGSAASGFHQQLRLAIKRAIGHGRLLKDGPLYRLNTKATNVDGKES"}
{"Sequence": "CTCCTCCA", "E-score": -0.283}
{"Sequence": "GGACGGCA", "E-score": 0.245}
{"Sequence": "CTGAAAAG", "E-score": -0.0408}
{"Sequence": "CTCATCAG", "E-score": -0.0878}
{"Sequence": "AGTCCTTC", "E-score": -0.096}
{"Sequence": "AGTTGCTG", "E-score": 0.0453}
{"Sequence": "ATCTCTTC", "E-score": -0.0773}
{"Sequence": "CATGATGG", "E-score": -0.27}
{"Sequence": "AGTGCACT", "E-score": -0.164}
{"Sequence": "AAATCGCC", "E-score": -0.0109}
{"Sequence": "AAAGGACA", "E-score": -0.205}
{"Sequence": "GTCTGGTA", "E-score": -0.208}
{"Sequence": "ACCCAGAA", "E-score": -0.132}
{"Sequence": "CCTACATA", "E-score": -0.0902}
{"Sequence": "ACTACGGC", "E-score": 0.251}
{"Sequence": "ATCCAAAT", "E-score": -0.107}
{"Sequence": "GATAATAC", "E-score": -0.201}
{"Sequence": "AAAACTGT", "E-score": -0.105}
{"Sequence": "AGGCAAGA", "E-score": -0.136}
{"Sequence": "AAGCTGGG", "E-score": -0.0975}
{"Sequence": "AATTGCGA", "E-score": 0.0612}
{"Sequence": "CGCCCGGA", "E-score": 0.168}
{"Sequence": "AAGGTCAT", "E-score": -0.0997}
{"Sequence": "CGCGTTAG", "E-score": 0.276}
{"data": "Set 3", "target": "RNA binding protein fox-1 homolog 2, RRM domain, GST-SBP tag (RBFOX2, Homo sapiens, UniProt O43251-10, residues 100-194)", "technique": "RNA Bind-n-Seq", "form": "RNA", "medium": "in vitro", "tested at": "365 nM", "notes": "natural RNA segment, single round, ends assumed", "baseline": "no-protein control", "reading": "higher = stronger binding", "Construct (chain)": "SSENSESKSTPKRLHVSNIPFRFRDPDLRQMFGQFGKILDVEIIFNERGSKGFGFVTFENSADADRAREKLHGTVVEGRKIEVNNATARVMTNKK"}
{"Sequence": "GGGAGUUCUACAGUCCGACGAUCGCCUAUCUUUUCCCCUUACAUAUGUCUUUGUCCUUCUUUCCCAAAGAUGUCAAAUACAAUGCAGCAUUUUCAUCUUGUUCUUUCAAAGUUAAUAGUCUAUUAUUUUAUGUUGGAAUUCUCGGGUGCCAA", "RBNS enrichment (R)": 1.27}
{"Sequence": "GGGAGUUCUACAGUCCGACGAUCGGGAACACACAAAGAAUUACACAACGUUUUCCUCAAGAAAAUGGUACAAAACACAACCGAGGAGCGUAUACAGUUGAAAACAUUUUUGUUUUGAUUGGAAGGCAGAUUAUUGGAAUUCUCGGGUGCCAA", "RBNS enrichment (R)": 0.306}
{"Sequence": "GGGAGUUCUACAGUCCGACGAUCUAAUGUGCGACGUGUCGCCCAAGCUCUGCCCUAAGAAGCUUCUUAGUGACUCCAGCCACCUGAGAGCGCCCAGGAGCACCAGGGGGGGCCAGAUGCGCUUCCUGAGCUCUUGGAAUUCUCGGGUGCCAA", "RBNS enrichment (R)": 0.25}
{"Sequence": "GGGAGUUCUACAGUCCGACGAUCCUGAAAGAAUCCAGAGGUUGGAGUGCCAAUAGAAAAUGAAAACAAAUGCCUUGUACUACAGGCAGCCUCUGAAGGUGACCACAUAACUGUCUUCACUGUGACCAAUCGGAUGGAAUUCUCGGGUGCCAA", "RBNS enrichment (R)": 0.557}
{"Sequence": "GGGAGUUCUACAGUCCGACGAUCAGUCUGUUAAUUUAUCUGAAAUUGGAUUUUUUUUUAAAAAAGUAAUAAAAAAUUAAAUACUUCCCUUGAUGCUUGCUUUCUUUCCUUUGUGAAACAGGUAAACUGAGGUAUGGAAUUCUCGGGUGCCAA", "RBNS enrichment (R)": 2}
{"Sequence": "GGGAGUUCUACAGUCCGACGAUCGGCCUGCUAACAGCCCCCCGAUCCGUCAGGGGGAAUAACUCUGGGAGUCACUGGAUAUCAGUGGAGACUACUGUGGUCUUCCCACGCAUGGGCCGUGGCUUUCAGUUCUCUGGAAUUCUCGGGUGCCAA", "RBNS enrichment (R)": 0.737}
{"Sequence": "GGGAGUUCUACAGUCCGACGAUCUCUGAAAGAGUCACAUUUUGUCAAAAAUCUGAAAAGUAUGCAAUUUGUACAACUCUUACUUUCUAUGUGAUAAGAAUGCAAUAUGUGCCUCUUUCCCCUACUAGCCCCAUUGGAAUUCUCGGGUGCCAA", "RBNS enrichment (R)": 0.439}
{"Sequence": "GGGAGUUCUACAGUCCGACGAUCCUUCUAUAUGGCAGUUCAUUCUUGGCCCUCAGGAUUGGGGAGACCAGCUCUCAUUGUGUGUGCUCAGGGCUAAGUCUAAACAAGGGUUUGCUGGCCCCCAAGCUGUUGUUUGGAAUUCUCGGGUGCCAA", "RBNS enrichment (R)": 1.8}
{"data": "Set 4", "target": "RING finger protein unkempt homolog, zinc fingers 1-6, GST-SBP tag (UNK, Homo sapiens, UniProt Q9C0B0, residues 30-357)", "technique": "RNA Bind-n-Seq", "form": "RNA", "medium": "in vitro", "tested at": "not given", "notes": "RNA with constant flanks, human-mouse chimeric sites, ends assumed", "baseline": "input RNA pool", "reading": "higher = stronger binding", "chain of UniProt Q9C0B0 (30-357, looked up)": "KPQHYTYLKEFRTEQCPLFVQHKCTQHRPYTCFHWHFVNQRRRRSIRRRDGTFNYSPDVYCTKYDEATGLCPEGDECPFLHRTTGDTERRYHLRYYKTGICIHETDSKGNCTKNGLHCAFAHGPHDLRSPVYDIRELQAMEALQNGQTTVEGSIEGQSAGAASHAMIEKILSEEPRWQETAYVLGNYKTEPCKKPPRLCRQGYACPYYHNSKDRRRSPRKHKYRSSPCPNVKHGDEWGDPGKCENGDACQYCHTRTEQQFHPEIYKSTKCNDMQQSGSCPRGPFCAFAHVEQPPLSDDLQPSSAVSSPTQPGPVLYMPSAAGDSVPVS"}
{"Sequence": "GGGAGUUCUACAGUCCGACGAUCAGAGCCCAGGAUGUUGAUGCUACAAAUCCAAAUUAUGAAAUUAUGUGUAUGAUCAGAGACUUUAGAGGGAGCUUGGAUUACAGACCCCUAACAACAGCAGAUCCUAUUGAUGAACAUAGGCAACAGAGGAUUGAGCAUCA", "bound/input enrichment": "0.555 ratio"}
{"Sequence": "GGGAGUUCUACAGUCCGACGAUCGAGCCCAGCCGGCAGUUUGUAAAGGACUCCAUUCGGCUGGUUAAAAGAUGCACCAAACCCGACAGAAAAGAAUUCCAGAAGAUUGCCAUGGCAACAGCUAUAGGAUUUGCUAUCAUGGGACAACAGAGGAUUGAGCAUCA", "bound/input enrichment": "0.175 ratio"}
{"Sequence": "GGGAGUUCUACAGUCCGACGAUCAACAGAUUGUCUUUAAGCAUUCCAAGCGAGAAUGCUGGGGUGAUCAUUGUUGCCCAUGUGCCUUCUGACUGAGCUUUAAUGCUGUUCCAUGUUACAUUGAUGUUCUUUUGCAUAUUUGUUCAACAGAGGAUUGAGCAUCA", "bound/input enrichment": "0.137 ratio"}
{"Sequence": "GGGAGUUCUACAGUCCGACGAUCGCUCCUCCCCGCUCUGCAGCCUGGGGACACUGGGCUGGGACCAGAAUCCAGCUUUCUUUUAAAACUCUCAGUGUAACUUCUUUUUCUGACAUUUCAUUUUUUUUAAAUAGUGUAUUUUUUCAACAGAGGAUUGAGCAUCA", "bound/input enrichment": "4.24 ratio"}
{"Sequence": "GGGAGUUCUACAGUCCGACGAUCCCCUCCCCGGGCCACCCACCCCUCCCGGCUCCCCGCCGAGAUCCAGGUUUCUUCUGUUUUCAUAGCAAAUAAGAAAAAUGUUCUACGCACAUUUUGUUCUCAGUAAACGAGGGCCUCUGGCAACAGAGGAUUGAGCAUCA", "bound/input enrichment": "2.64 ratio"}
{"Sequence": "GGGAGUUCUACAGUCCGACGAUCAACAGAUUGUCUUUAAGCAUUCCAAGCGAGAAUGCUGGGGUGAUCAUUGUUGCCCAUGUGCCUUCUGACUGAGCUUUAAUGCUGUUCAUCCUUGAUGCUUUCCUUCAUUGCAUAUUUGUUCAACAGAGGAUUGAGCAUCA", "bound/input enrichment": "0.165 ratio"}
{"Sequence": "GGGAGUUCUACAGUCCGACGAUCGAUAGGAAAAGCUUGUUGGAGACCCGCUUGCAUGUCACUGGUAGAGACCUGAGGUGUCAAAUAGCUGAAACUUUCGGAUUUCAAGAAAAUUAUAUCAAGAUCGUAAUAAAUAAGAAACAGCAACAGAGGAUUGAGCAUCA", "bound/input enrichment": "0.805 ratio"}
{"Sequence": "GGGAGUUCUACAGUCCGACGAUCAAAGAUCUACUGAGGCAAGGCAGCAAAUUUAGGAGAGACAUUUCAACAAUAUUGAUAGAGUUAGGAUUCCAAAUUAAAAAGAAAACUAAGACAUUAUACAUCAACAAAGCCAAUGUGUGGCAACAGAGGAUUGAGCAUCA", "bound/input enrichment": "6.37 ratio"}
{"note": "Excerpt of the above (set 3):"}
{"Sequence": "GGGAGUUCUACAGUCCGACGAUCUAAUGUGCGACGUGUCGCCCAAGCUCUGCCCUAAGAAGCUUCUUAGUGACUCCAGCCACCUGAGAGCGCCCAGGAGCACCAGGGGGGGCCAGAUGCGCUUCCUGAGCUCUUGGAAUUCUCGGGUGCCAA", "RBNS enrichment (R)": 0.25}
{"Sequence": "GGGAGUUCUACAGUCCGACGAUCAGUCUGUUAAUUUAUCUGAAAUUGGAUUUUUUUUUAAAAAAGUAAUAAAAAAUUAAAUACUUCCCUUGAUGCUUGCUUUCUUUCCUUUGUGAAACAGGUAAACUGAGGUAUGGAAUUCUCGGGUGCCAA", "RBNS enrichment (R)": 2}
{"Sequence": "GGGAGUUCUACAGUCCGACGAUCCUUCUAUAUGGCAGUUCAUUCUUGGCCCUCAGGAUUGGGGAGACCAGCUCUCAUUGUGUGUGCUCAGGGCUAAGUCUAAACAAGGGUUUGCUGGCCCCCAAGCUGUUGUUUGGAAUUCUCGGGUGCCAA", "RBNS enrichment (R)": 1.8}
